{"data": "Measured values of several laboratories", "note": "A part holds a random share of what one study measured. Values joined by “and” are separate records of one study, mostly repeats; a detail may differ."}
{"data": "Block 1", "target": "POU, POU domain (Salpingoeca helianthica)", "technique": "Spec-seq", "form": "double-stranded DNA, one strand shown", "medium": "in vitro", "tested at": "not given", "setting": "whole probe, mean of replicates", "reference": "not given", "reading": "lower = stronger binding", "all sequences stand within": "GAGTCGTCTCGTCAGCAC … CCGTAGAGCACTCAGGTC", "Target sequence (chain)": "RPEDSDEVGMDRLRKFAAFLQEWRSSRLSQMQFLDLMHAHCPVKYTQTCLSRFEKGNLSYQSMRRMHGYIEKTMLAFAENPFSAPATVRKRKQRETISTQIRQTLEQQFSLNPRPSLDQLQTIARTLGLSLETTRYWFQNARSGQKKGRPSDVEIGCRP"}
{"Sequence": "ATGCCGTC", "relative binding energy [ln ratio]": 1.29}
{"Sequence": "TAAATAAT", "relative binding energy [ln ratio]": -0.678}
{"Sequence": "AGAATAAT", "relative binding energy [ln ratio]": 0.291}
{"Sequence": "ATGCTGAC", "relative binding energy [ln ratio]": 0.811}
{"Sequence": "ATGCTTGG", "relative binding energy [ln ratio]": 1.52}
{"Sequence": "ATGCCCCT", "relative binding energy [ln ratio]": 1.59}
{"Sequence": "CACCTAAT", "relative binding energy [ln ratio]": 0.699}
{"Sequence": "GCTCTAAT", "relative binding energy [ln ratio]": 0.774}
{"Sequence": "ATGCCGTA", "relative binding energy [ln ratio]": 1.17}
{"data": "Block 2", "target": "Interferon regulatory factor 5, full length, phosphomimetic (IRF5, Homo sapiens, UniProt Q13568-2, residues 1-514, S451D/S453D/S456D/S462D)", "technique": "protein-binding microarray", "form": "double-stranded DNA, one strand shown", "medium": "in vitro", "tested at": "940 nM top", "setting": "60-bp whole probe", "added": "salmon DNA 0.4 mg/ml", "reference": "random background probes", "reading": "higher = stronger binding"}
{"Sequence": "GCCTAGCACTTAGGTATCGGTATCGGCTAGTGCTAGGTCTTGATTCGCTTGACGCTGCTG", "fitted relative affinity [z-score]": 10.1}
{"Sequence": "GCCTAGCACGACGGTATCCTTCTGCTGACGTGCTAGGTCTTGATTCGCTTGACGCTGCTG", "fitted relative affinity [z-score]": 0.467}
{"Sequence": "GCCTAGCACGACGGTACCGACTATCGGGACGTGCTAGTCTTGATTCGCTTGACGCTGCTG", "fitted relative affinity [z-score]": -0.298}
{"Sequence": "GCCTAGCACTCACATTTGGAAAATGAAACTGTGCTAGTCTTGATTCGCTTGACGCTGCTG", "fitted relative affinity [z-score]": 0.266}
{"data": "Block 3", "target": "Histone acetyltransferase KAT6A, winged helix 2, GST fusion (KAT6A, Homo sapiens, UniProt Q92794, residues 85-181)", "technique": "protein binding microarray", "form": "double-stranded DNA, one strand shown", "medium": "in vitro", "tested at": "not given", "setting": "8-mer, flanks averaged, mean of 2 arrays, mostly near background", "reference": "not given", "reading": "higher = stronger binding", "Residues (chain)": "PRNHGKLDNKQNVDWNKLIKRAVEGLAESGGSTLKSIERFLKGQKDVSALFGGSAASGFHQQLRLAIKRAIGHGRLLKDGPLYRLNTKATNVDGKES"}
{"Sequence": "CCATTTAC", "E-score": -0.141}
{"Sequence": "ATTAGCTA", "E-score": -0.149}
{"Sequence": "ACGATCAG", "E-score": 0.0428}
{"Sequence": "GTGCTAAC", "E-score": 0.0122}
{"Sequence": "ACGAAGTC", "E-score": -0.123}
{"Sequence": "GCTCTAGA", "E-score": -0.227}
{"Sequence": "ACACCGCT", "E-score": -0.0781}
{"Sequence": "CGTCTGGA", "E-score": 0.0458}
{"data": "Further values, each from its own experiment"}
{"Molecule": "PhoQ, residues 284 288 289 292 302 303 ALASRC", "target": "PhoP, residues 12 14 15 18 19 LWHSL (Escherichia coli, UniProt P23836)", "test": "Sort-seq, measured: YFP reporter", "system": "E. coli", "conditions": "PhoQ-PhoP variant library, added: 10 µM Mg2+", "scale": "reference: high Mg2+ state, higher = stronger signaling", "quantity": "fold induction", "value": "4.19 and 11.6"}
{"note": "A few entries again (block 1):"}
{"Sequence": "ATGCTTGG", "relative binding energy [ln ratio]": 1.52}
{"Sequence": "ATGCTGAC", "relative binding energy [ln ratio]": 0.811}
